Published values of several laboratories.
Parts stem from different laboratories: compare values within a part only.
Chain of UniProt O14920 (whole entry, looked up): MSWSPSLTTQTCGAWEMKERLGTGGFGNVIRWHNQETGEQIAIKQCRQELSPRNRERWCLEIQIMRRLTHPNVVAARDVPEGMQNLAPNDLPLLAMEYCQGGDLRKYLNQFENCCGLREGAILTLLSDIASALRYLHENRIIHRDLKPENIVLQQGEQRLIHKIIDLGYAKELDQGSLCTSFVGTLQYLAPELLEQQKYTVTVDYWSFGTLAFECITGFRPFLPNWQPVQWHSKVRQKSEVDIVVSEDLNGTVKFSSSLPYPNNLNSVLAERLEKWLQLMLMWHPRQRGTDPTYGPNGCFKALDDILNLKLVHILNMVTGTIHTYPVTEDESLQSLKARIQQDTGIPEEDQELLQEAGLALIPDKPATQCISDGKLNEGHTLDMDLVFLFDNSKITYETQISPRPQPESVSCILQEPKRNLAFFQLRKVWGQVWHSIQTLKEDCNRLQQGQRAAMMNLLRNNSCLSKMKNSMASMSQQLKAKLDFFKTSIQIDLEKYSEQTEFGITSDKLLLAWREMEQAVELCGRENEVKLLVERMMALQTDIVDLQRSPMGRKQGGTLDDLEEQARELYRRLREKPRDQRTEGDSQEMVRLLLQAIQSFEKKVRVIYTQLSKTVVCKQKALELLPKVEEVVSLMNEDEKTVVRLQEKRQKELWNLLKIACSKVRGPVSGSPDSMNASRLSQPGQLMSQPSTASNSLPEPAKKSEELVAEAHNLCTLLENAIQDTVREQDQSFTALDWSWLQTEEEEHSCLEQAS
Chain of UniProt Q9UBF8 (whole entry, looked up): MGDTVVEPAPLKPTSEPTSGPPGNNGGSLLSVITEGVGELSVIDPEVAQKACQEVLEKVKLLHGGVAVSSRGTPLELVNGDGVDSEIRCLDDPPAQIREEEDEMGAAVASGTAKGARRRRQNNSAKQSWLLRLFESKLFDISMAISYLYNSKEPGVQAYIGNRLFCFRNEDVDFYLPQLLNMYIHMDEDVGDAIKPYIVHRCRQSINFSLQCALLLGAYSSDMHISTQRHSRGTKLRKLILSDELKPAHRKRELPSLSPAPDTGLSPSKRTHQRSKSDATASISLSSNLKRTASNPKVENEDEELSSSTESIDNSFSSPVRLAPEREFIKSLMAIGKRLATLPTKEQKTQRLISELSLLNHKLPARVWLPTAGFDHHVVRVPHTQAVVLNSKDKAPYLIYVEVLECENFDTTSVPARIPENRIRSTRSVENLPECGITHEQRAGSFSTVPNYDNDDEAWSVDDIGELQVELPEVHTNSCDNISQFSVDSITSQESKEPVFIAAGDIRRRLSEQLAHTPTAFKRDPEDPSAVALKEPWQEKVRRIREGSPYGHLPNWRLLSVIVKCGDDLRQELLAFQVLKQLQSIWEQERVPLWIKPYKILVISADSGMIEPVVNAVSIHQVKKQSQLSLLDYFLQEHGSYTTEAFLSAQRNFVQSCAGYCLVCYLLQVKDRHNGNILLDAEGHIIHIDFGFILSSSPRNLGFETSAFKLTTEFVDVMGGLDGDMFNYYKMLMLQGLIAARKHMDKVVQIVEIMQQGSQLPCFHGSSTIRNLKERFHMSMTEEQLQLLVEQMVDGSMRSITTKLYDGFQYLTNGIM
Chain of UniProt Q13164 (whole entry, looked up): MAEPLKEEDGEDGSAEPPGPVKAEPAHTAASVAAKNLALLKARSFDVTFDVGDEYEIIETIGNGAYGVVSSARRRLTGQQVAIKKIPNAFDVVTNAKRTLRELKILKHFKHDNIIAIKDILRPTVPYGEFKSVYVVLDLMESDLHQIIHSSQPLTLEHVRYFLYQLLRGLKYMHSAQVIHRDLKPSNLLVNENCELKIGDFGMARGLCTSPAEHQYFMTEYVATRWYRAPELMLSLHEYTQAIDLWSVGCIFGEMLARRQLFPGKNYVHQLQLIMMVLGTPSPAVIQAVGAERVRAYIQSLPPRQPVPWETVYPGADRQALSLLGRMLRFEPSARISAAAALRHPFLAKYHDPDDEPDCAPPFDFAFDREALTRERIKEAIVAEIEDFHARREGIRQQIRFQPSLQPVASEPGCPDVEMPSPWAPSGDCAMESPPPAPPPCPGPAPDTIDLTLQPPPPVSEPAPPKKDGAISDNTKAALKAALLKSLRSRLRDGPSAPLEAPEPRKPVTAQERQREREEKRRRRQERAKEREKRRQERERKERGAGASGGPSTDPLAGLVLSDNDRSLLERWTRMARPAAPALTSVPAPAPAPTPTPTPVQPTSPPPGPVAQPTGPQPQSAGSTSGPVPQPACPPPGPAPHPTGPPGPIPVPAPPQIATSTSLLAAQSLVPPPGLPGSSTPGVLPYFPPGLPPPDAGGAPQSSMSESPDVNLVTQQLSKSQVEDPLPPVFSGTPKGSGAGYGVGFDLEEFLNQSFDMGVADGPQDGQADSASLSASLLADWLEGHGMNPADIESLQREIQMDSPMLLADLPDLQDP
Chain of UniProt P00519 (whole entry, looked up): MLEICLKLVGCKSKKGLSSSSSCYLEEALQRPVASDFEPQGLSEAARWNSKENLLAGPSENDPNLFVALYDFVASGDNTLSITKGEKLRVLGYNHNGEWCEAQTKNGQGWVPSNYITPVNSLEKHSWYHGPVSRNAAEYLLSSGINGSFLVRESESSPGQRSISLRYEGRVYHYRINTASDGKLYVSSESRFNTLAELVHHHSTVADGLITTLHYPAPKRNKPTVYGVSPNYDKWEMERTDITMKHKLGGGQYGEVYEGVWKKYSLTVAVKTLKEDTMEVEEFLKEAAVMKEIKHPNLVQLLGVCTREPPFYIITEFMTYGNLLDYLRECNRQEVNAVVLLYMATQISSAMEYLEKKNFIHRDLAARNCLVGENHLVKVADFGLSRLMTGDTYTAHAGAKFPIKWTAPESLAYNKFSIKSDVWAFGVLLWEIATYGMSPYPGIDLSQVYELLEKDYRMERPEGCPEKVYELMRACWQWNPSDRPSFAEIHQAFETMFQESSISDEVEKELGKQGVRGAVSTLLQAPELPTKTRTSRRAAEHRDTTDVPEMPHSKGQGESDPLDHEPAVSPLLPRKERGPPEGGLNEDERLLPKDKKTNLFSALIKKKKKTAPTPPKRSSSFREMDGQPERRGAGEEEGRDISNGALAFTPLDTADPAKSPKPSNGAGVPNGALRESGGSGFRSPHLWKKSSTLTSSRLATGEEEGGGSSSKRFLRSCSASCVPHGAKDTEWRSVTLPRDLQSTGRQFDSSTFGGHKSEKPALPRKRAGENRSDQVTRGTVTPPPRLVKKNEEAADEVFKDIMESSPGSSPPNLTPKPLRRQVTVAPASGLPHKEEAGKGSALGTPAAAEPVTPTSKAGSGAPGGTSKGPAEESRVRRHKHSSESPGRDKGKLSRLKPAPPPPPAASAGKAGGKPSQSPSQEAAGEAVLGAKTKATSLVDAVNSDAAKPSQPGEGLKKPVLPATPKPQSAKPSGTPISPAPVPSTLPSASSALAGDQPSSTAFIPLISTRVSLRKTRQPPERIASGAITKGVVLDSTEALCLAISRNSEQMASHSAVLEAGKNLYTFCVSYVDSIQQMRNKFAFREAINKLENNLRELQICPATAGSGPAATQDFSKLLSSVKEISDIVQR
Chain of UniProt O95835 (whole entry, looked up): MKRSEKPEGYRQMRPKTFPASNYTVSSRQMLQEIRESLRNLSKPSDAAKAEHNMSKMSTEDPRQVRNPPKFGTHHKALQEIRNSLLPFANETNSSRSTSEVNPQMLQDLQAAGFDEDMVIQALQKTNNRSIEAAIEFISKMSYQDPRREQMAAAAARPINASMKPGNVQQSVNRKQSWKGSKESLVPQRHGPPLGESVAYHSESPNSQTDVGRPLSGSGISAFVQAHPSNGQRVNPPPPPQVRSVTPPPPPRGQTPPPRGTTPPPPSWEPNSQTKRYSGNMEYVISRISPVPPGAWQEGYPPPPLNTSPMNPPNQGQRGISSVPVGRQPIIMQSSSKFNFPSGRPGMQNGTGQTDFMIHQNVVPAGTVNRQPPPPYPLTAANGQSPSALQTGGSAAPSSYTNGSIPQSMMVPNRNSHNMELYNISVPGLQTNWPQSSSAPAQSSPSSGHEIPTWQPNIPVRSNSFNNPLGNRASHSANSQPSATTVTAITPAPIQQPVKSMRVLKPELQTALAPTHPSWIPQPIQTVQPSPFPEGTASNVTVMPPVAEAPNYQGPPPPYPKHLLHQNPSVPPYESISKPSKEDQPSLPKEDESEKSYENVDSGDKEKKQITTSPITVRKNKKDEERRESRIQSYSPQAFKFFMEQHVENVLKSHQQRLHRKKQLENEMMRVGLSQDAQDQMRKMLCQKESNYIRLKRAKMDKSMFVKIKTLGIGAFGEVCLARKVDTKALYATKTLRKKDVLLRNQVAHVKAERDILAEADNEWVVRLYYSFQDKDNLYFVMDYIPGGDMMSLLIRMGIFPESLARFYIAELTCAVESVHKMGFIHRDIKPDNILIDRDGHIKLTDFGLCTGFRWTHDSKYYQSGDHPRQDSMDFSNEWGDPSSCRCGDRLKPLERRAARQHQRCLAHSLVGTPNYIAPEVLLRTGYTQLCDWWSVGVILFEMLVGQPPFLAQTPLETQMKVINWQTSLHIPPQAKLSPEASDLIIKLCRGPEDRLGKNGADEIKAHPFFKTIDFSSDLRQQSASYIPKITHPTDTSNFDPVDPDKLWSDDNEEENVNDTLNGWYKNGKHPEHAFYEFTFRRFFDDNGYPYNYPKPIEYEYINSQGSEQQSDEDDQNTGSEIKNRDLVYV
Chain of UniProt P51955 (whole entry, looked up): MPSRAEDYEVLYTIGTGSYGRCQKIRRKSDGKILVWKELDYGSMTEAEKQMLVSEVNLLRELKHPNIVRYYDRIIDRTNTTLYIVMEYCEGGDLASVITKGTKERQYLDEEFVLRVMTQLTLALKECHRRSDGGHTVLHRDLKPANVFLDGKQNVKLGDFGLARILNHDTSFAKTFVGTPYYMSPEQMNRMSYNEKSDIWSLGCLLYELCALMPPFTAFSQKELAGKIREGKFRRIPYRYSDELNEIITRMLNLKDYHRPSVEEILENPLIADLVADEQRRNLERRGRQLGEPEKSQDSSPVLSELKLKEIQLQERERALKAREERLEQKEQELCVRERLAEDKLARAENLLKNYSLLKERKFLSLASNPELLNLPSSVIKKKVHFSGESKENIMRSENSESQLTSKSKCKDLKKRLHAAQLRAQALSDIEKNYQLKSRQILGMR

Study 1 — host: mouse; medium: microsomes or S9; concentration: 2 µM; time: 0.5 h
SMILES | remaining compound [%]
O=C(Nc1ncc(Cl)cc1Cl)c1cc2ncccn2n1 | 59.9
CCOC1CC(NC(=O)c2nnn(C3CCNCC3)c2C)C12CCC2 (stereo not shown) | 0.518
Cc1n[nH]c(-c2ccc(O)cc2O)c1Oc1ccc(Cl)cc1 | 66.8
O=C(O)C[C@]1(C(=O)NCc2ccccc2)CC(/C=C/c2ccccc2)=NO1 | > 100
Cc1ccn(-c2ccc(NS(=O)(=O)c3ccc(C4CNC(=O)C4)cc3)cc2)n1 (stereo not shown) | > 100
O=c1c2ncn(C3CCS(=O)(=O)C3)c2ncn1Cc1ccc(F)cc1 (stereo not shown) | 35.2

Study 2 — target: His6 tag; technique: AlphaScreen counter screen; concentration: concentration not given
Structure (SMILES) | inhibition [%]
C=CC(=O)Nc1cc2c(Nc3ccc(F)c(Cl)c3)ncnc2cc1OCCCN1CCOCC1 | -5.65
O=C1Nc2ccccc2C1=Nc1ccc(C(=O)O)cc1 | 5
O=C(Nc1ccc2[nH]ncc2c1)c1c(F)c(F)c(F)c(F)c1F | 2
COC(=O)c1ccc(CSc2nc3c([nH]c4ccccc43)c(=O)n2C)o1 | 0.75
N#CC(=Cc1ccccn1)c1nc2ccccc2s1 | -5.1
O=C1C(Cl)=C(N2C(=O)CCC2=O)C(=O)c2ccccc21 | 8.75

Study 3 — host: human; medium: plasma; route: oral
SMILES: COc1ccc(-c2c(Nc3ccccn3)[nH]c3c(C4=CCCCC4)c(-c4ccccc4)nn3c2=O)cc1
technique | dose | Tlag
LC-MS/MS | 200 mg once daily | 0 h
LC-MS/MS | 100 mg once daily | 0 h
– | 200 mg twice daily | 0 h

Study 4 — read-out: cell-free assay; technique: competition with immobilised ligand; concentration: 1 µM
SMILES: O=C(NCc1ncc(C(F)(F)F)cc1Cl)c1ccc2c(c1)C1(CCS(=O)(=O)CC1)[C@@H](C1CC1)N2S(=O)(=O)c1ccc(F)cc1
target | remaining binding [%]
MAP3K3 (Homo sapiens, UniProt Q99759) | 60
STK38 (Homo sapiens, UniProt Q15208) | 84
LATS1 (Homo sapiens, UniProt O95835) | 97
MAK (Homo sapiens, UniProt P20794) | 89
MAPK7 (Homo sapiens, UniProt Q13164) | 97
Tyrosine-protein kinase ABL1, non-phosphorylated (ABL1, Homo sapiens, UniProt P00519) | 89
PIK3CA (Homo sapiens, UniProt P42336) | 100
PIP5K1C (Homo sapiens, UniProt O60331) | 94
NEK2 (Homo sapiens, UniProt P51955) | 88
IKBKB (Homo sapiens, UniProt O14920) | 86
DCLK2 (Homo sapiens, UniProt Q8N568) | 100
CSNK1A1L (Homo sapiens, UniProt Q8N752) | 100
ROCK1 (Homo sapiens, UniProt Q13464) | 82

Study 5 — technique: competitive binding panel; concentration: 1 µM; relative to: vehicle
SMILES: CN1CCN(C(=O)c2ccc(NC(=O)Nc3ccc(N(C)c4ccnc(Nc5ccc(CS(C)(=O)=O)cc5)n4)cc3)cc2)CC1
target | item | remaining binding
GSK3B (Homo sapiens, UniProt P49841) | – | 95%
PI4KB (Homo sapiens, UniProt Q9UBF8) | PIK4CB | 97%
GRK4 (Homo sapiens, UniProt P32298) | – | 4.5%

For quick reference, copied from above (study 3):
technique | dose | Tlag
LC-MS/MS | 200 mg once daily | 0 h
LC-MS/MS | 100 mg once daily | 0 h
– | 200 mg twice daily | 0 h
